Assay results of several laboratories.
Parts stem from different laboratories: compare values within a part only. Changes are numbered by the printed parent chain.

Set 1
Target: TAR DNA-binding protein 43, full length, His tag (TARDBP, Homo sapiens, UniProt Q13148, residues 1-414)
Technique: RNA Bind-n-Seq
Molecule type: RNA
Medium: in vitro
Tested at: 20 nM
Notes: 6-mer, flanks averaged, single round
With: 150 mM LiCl
Relative to: input library
Reading: higher = stronger binding
| Strand | 6-mer enrichment (R) |
| --- | --- |
| AGUUAG | 0.991 |
| GCACGC | 0.93 |
| UAGAGG | 1.06 |
| CGUGGC | 1.01 |
| UGGCCG | 1.02 |
| CUCAUA | 0.865 |
| GUGUCG | 1.18 |
| CAGGUG | 1.08 |
| UUGAGA | 1 |
| GUGCAA | 1 |
| UAAAAA | 1.01 |

Set 2
Target: ABI1, truncated, D143A, DHFR fusion (Arabidopsis thaliana)
Technique: DHFR PCA, deep sequencing
Medium: yeast
Notes: methotrexate growth selection, single substitutions
With: (+)-ABA 0.11 µM
Relative to: wild-type fitted maximum
Reading: higher = stronger binding
Starting sequence: PYL1, truncated, DHFR fusion (Arabidopsis thaliana); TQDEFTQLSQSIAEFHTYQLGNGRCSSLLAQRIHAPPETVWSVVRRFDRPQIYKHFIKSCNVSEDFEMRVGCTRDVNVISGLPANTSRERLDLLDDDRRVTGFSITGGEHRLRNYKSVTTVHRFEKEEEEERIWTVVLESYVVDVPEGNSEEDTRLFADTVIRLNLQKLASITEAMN; partner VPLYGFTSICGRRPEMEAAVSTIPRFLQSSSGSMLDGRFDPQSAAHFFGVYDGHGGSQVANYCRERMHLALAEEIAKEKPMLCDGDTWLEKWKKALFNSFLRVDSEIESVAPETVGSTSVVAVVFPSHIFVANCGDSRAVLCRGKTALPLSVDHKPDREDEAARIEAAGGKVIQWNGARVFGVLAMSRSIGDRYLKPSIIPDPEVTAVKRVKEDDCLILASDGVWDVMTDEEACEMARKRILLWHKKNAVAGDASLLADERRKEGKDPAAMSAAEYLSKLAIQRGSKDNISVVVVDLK
| Variant | relative binding score |
| --- | --- |
| E38F | 3.68% |
| S140Y | 5.36% |
| G81W | 1.92% |
| R155W | -0.861% |
| S140R | 6.35% |
| S11L | 6.77% |
| E89C | -1.81% |

Set 3
Target: RNA binding protein fox-1 homolog 2, RRM domain, GST-SBP tag (RBFOX2, Homo sapiens, UniProt O43251-10, residues 100-194)
Technique: RNA Bind-n-Seq
Molecule type: RNA
Medium: in vitro
Tested at: 365 nM
Notes: natural RNA segment, single round, ends assumed
Relative to: no-protein control
Reading: higher = stronger binding
Residues (chain): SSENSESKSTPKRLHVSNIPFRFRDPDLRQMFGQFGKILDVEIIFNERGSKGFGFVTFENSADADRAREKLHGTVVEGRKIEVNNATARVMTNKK
| Strand | RBNS enrichment (R) |
| --- | --- |
| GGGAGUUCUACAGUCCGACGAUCCUGGGUAUCUGUCUGGUUCUAUUUUGUUUUGUUAUUAUCCUUGUAUUUCCAGCCACCUCCCAUCCCUUCUUCAAGCUUAGCCAGAUCCUAUCUCGCCCAGUGAAAUCACAUGGAAUUCUCGGGUGCCAA | 0.544 |
| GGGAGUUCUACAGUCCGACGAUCCUGACCAACUGCCAAGCUCGCUUUGCUGCCCAGAGCACUGUCCCCUCACAGCAAGCACAAGUUGUCUGCACCACUUGGUUUCUGACUGAAGGGGAAGUACAGGACUACAUUGGAAUUCUCGGGUGCCAA | 0.376 |
| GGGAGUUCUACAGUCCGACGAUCCAUGAUCAUGAAUUCCAGUUAAUUUAUAAAGAGGCGAUUUUUGUGUGCCAUUCACACUGGUCUUUUUCACAUUGUUUUGAGCUUAUUGCAGUAUAUGUUUUGGGAUUUUUUGGAAUUCUCGGGUGCCAA | 0.758 |
| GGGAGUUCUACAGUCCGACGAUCAGAGUCGGCAAGCAGGUGCCAGAUUUUCUAUCCCAUCAGCCAGUGCUUCACCAGGUGCAGGCUGCUAUGGGCUUGUGGAAACCACAGGUACAGGUGGGAUUUCAUGGGUCUGGAAUUCUCGGGUGCCAA | 0.325 |
| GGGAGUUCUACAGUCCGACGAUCCUCUCCAGGCAAGAGGCCAUUCAGUCUGUACAUUGUCGGGACCGGAGAGGUGGGACUGCCAUCUGGGCCUCGGUGGCUUGUUUCCAACCAAAUUAUCUGGGCUUCAGAAGUGGAAUUCUCGGGUGCCAA | 0.221 |
| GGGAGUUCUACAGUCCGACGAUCUUAUCCAGGCUACAUCAGGAGGUUGGACUUCAAUGCAGUGCAUUUCUAGAAACAGUUUGGUAAACAUAAAAGAGAGCAAGAUCAUUCUCGAUCUUCAUCCUCUUCAGCAUUGGAAUUCUCGGGUGCCAA | 0.414 |
| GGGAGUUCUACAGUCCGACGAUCUUUAAACAACCAAGCUAAAGCUAUGUGAAAGUUGAGCUCAAAGUAGAGGAAAAGUUACUGGUGGUACCUUGCUGCCUGCUCUGCUGGUAGAAUUCUGUGCUCCCCGUGACUGGAAUUCUCGGGUGCCAA | 0.289 |
| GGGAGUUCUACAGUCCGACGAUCAUUUUGGUAAGAAAAACAUCAAAGGUCCCCUUGGGAAUUUCAAAGGUUGGAAAUUAUACGUUUAUACUUUUAUUAGUUUGCUCCAAGUAUGACUGUGUUCACUUAAGUUUUGGAAUUCUCGGGUGCCAA | 2.75 |
| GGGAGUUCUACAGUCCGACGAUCCCCGUGUUUCCUAAGGACUCCGCAGACAAGGCUUUCACCUGCGUGUUCAUCUGUGGGUCAUCGAGGCUGGAGCAGUUCCUGCUGAGUCAGGCUCUGUCCUAGAGUGGGCAUGGAAUUCUCGGGUGCCAA | 0.227 |
| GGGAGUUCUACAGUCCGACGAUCGGUCUGGUCAGGGUCCUGCUGCUUCCGUAACCUGGGUUUGCCUGUCCACCCCUGGCCUCUUCCGUAUUUGCUGUUAUCUGCUCCCUCUUUCCUGAGGGGCCUCAGGGCAUUGGAAUUCUCGGGUGCCAA | 0.809 |
| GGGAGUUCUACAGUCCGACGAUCGUGUGAUCCUACUUGAAAACAACCCUUGAGGAGGGCGCCUCGGUCACUGUGAGCAUGUCAGAGGCUUUCUGUGUAGAUGUCCUGCCAUGGGUGAUGUGUGAUCUACCAGUUGGAAUUCUCGGGUGCCAA | 2.83 |
| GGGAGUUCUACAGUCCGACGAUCCUCUGGACCAUACGCGGAGGAGUUUUCUGUGUGGUCUCCAGCUCCUCUCCAGACACAGAGACAUGGGAGUGGGGAGCGGAGCUUGGCCCUGCGCCCUGUGCAGGGAAAGGUGGAAUUCUCGGGUGCCAA | 0.738 |

Single results of other studies
| Molecule | target | assay | system | conditions | scale | quantity | value |
| --- | --- | --- | --- | --- | --- | --- | --- |
| PhoQ, residues 284 288 289 292 302 303 QWGLFV | PhoP, residues 12 14 15 18 19 LYFRQ (Escherichia coli, UniProt P23836) | Sort-seq, refers to: YFP reporter | E. coli | PhoQ-PhoP variant library, with: 10 µM Mg2+ | relative to: high Mg2+ state, higher = stronger signaling | fold induction | 14.7 |

A few entries again (set 2):
| Variant | relative binding score |
| --- | --- |
| R155W | -0.861% |
| E38F | 3.68% |
